Experimental data from different studies.
Parts stem from different laboratories: compare values within a part only. Changes are numbered by the printed parent chain.

Sample 1 — method: protein-binding microarray; form: double-stranded DNA, one strand shown; sample: in vitro; tested at: 250 nM; notes: 60-bp whole probe; added: salmon DNA 0.4 mg/ml; baseline: random background probes; direction: higher = stronger binding; constant ends, left off below: GCCTAGCAC … GTCTTGATTCGCTTGACGCTGCTG
Target: Interferon regulatory factor 5, full length, phosphomimetic (IRF5, Homo sapiens, UniProt Q13568-2, residues 1-514, K96S/S451D/S453D/S456D/S462D)
| Sequence | log fluorescence |
| --- | --- |
| TTAGGTATCGGCCTGGGTTAGTGCTAG | 2.81 z-score |
| GACGTACTGAGTTTCGAGACGTGCTAG | 3.95 z-score |
| ACCATTTTGGTTTTCTCTATGTGCTAG | 1.62 z-score |
| GACGATTTCAGTTCTGAGACGTGCTAG | 1.14 z-score |
| GACGGTATAGGTTTCGGGACGTGCTAG | 2.69 z-score |
| TTAGGTTTCGGGTATCAGTTAGTGCTA | 9.32 z-score |
| GAGATTTCCATTATTGCTTCGTGCTAG | 1.02 z-score |
| TTAGATATCAGTTTCCATTAGTGCTAG | 3.22 z-score |
| TCAGAACTGAGTTTCGATTAGTGCTAG | 9.61 z-score |
| TAGTTTATACTCTAGATGATGTGCTAG | 0.116 z-score |
| GACGGTATCGGAATCGGGACGTGCTAG | 2.02 z-score |
| GACGGTTTCCGTTTCCTGACGTGCTAG | 1.46 z-score |

Sample 2 — method: universal PBM; form: double-stranded DNA, one strand shown; sample: in vitro; tested at: not given; direction: higher = stronger binding
Target: Sal-like protein 4, full length isoform B (SALL4, Homo sapiens, UniProt Q9UJQ4-2, residues 1-616)
Notes: 8-mer, flanks averaged, mean of replicates
| Sequence | E-score |
| --- | --- |
| CCTAGCCG | -0.152 |
| AAATTGAG | 0.183 |
| CACTAGTG | 0.195 |
| AACGAACG | -0.0123 |
| CCTACGCA | -0.034 |
| TGCTAAAA | 0.0882 |
| AGACGGAT | -0.035 |
| GTGCGGGA | -0.165 |
| AAGCATGT | 0.145 |

Sample 3 — target: CCNA1, cyclin fold, Cln2 fusion (human); method: yeast growth competition, sequencing; sample: yeast; notes: weak parent motif; baseline: not given; direction: higher = stronger binding
Parent: PKN2 docking peptide (human); VSAVRKLDFSDTM
| Substitution | normalised enrichment score |
| --- | --- |
| F9G | 0.48 |
| D11V | 0.679 |
| S10K | 0.222 |
| A3M | 0.105 |
| S2K | 0.968 |
| D11F | 0.0797 |
| T12F | 1.39 |
| T12K | 0.828 |

Single results of other studies
| Molecule | target | assay | test system | conditions | scale | endpoint | result |
| --- | --- | --- | --- | --- | --- | --- | --- |
| PhoQ, residues 284 288 289 292 302 303 SLSVQF | PhoP, residues 12 14 15 18 19 NMSFL (Escherichia coli, UniProt P23836) | Sort-seq, measured: YFP reporter | E. coli | PhoQ-PhoP variant library, added: 10 µM Mg2+ | baseline: high Mg2+ state, higher = stronger signaling | fold induction | 8.19 |

For quick reference, copied from above (sample 2):
| Sequence | E-score |
| --- | --- |
| CCTAGCCG | -0.152 |
| AAGCATGT | 0.145 |
| AAATTGAG | 0.183 |
